# Published values collected from several papers.
# Organism: Staphylococcus aureus
SMILES,test,test system,setting,MIC
CC[C@H](C)[C@H](NC(=O)[C@H](CCCCN)NC(=O)[C@H](CC(=O)O)NC(=O)[C@H](CC(C)C)NC(=O)[C@@H](NC(=O)[C@H](CC(N)=O)NC(=O)[C@H](CC(C)C)NC(=O)[C@@H](NC(=O)[C@H](Cc1ccccc1)NC(=O)[C@H](CCCCN)NC(=O)[C@H](CCCCN)NC(=O)CNC(=O)[C@H](C)NC(=O)[C@H](CC(N)=O)NC(=O)[C@H](CCCCN)NC(=O)[C@H](Cc1ccccc1)NC(=O)[C@H](CC(N)=O)NC(=O)[C@H](CCC(=O)O)NC(=O)[C@H](Cc1c[nH]c2ccccc12)NC(=O)[C@H](CC(C)C)NC(=O)[C@@H](N)CO)[C@@H](C)CC)[C@@H](C)CC)C(=O)N[C@@H](CCCNC(=N)N)C(N)=O,,ATCC 6538,"overnight, 37 °C, with: 4.5 mM KCl",2 µM
CC[C@H](C)[C@H](NC(=O)[C@H](CC(C)C)NC(=O)[C@H](CCCNC(=N)N)NC(=O)[C@@H](N)CCCNC(=N)N)C(=O)N[C@@H](CCCNC(=N)N)C(=O)N[C@@H](CCCCN)C(=O)N[C@@H](CC(C)C)C(=O)N[C@@H](CCCCN)C(=O)NCC(=O)N[C@@H](CC(C)C)C(=O)N[C@@H](CCCCN)C(=O)N[C@@H](CCCCN)C(=O)N[C@@H](Cc1ccc(O)cc1)C(=O)N[C@@H](CC(C)C)C(=O)N[C@@H](Cc1ccc(O)cc1)C(=O)N[C@@H](Cc1ccccc1)C(=O)N[C@@H](CCCCN)C(=O)N[C@@H](CC(C)C)C(=O)N[C@@H](CCC(N)=O)C(=O)N[C@@H](CC(C)C)C(=O)N[C@@H](CC(C)C)C(=O)N[C@@H](CCCCN)C(=O)N[C@@H](CCCCN)C(N)=O,broth microdilution,"KCTC 1621, Mueller-Hinton broth",with: FeCl3 4 µM,16 µM
CC[C@H](C)[C@H](N)C(=O)N[C@@H](CC(C)C)C(=O)NCC(=O)N[C@H](CCCCN)C(=O)N[C@H](C(=O)N[C@@H](Cc1c[nH]c2ccccc12)C(=O)N[C@@H](CCCCN)C(=O)NCC(=O)N[C@H](C(=O)N[C@@H](CCCCN)C(=O)N[C@@H](CC(=O)O)C(=O)N[C@H](C(=O)N[C@@H](CC(C)C)C(N)=O)[C@@H](C)CC)[C@@H](C)CC)[C@@H](C)CC,broth microdilution,"ATCC 25923, Mueller-Hinton broth","16 h, 37 °C",100 µM
COc1ccnc(NC(=S)N2CCN(c3ncc(C(F)(F)F)cc3Cl)CC2)c1,,MRSA USA400-MW2,,1.8 µM
CC[C@H](C)[C@H](NC(=O)[C@H](Cc1ccc(O)cc1)NC(=O)[C@@H](NC(=O)[C@H](Cc1ccc(O)cc1)NC(=O)[C@@H]1CCCN1C(=O)[C@@H](NC(=O)[C@H](C)N)[C@@H](C)CC)[C@@H](C)CC)C(=O)N[C@@H](Cc1c[nH]c2ccccc12)C(=O)N[C@@H](CCCNC(=N)N)C(=O)N[C@@H](CC(C)C)C(=O)N[C@@H](CC(C)C)C(=O)N[C@@H](CCCNC(=N)N)C(=O)N[C@@H](CCCCN)C(=O)NCC(=O)O,broth microdilution,ATCC 6051,"18 h, 37 °C",1.88 µM
CC[C@H](C)[C@H](N)C(=O)N[C@@H](CC(C)C)C(=O)NCC(=O)N[C@@H](CCC(=O)O)C(=O)N[C@H](C(=O)N[C@@H](Cc1c[nH]c2ccccc12)C(=O)N[C@@H](CCCCN)C(=O)NCC(=O)N[C@H](C(=O)N[C@@H](CCCCN)C(=O)N[C@@H](CC(=O)O)C(=O)N[C@H](C(=O)N[C@@H](CC(C)C)C(N)=O)[C@@H](C)CC)[C@@H](C)CC)[C@@H](C)CC,broth microdilution,"ATCC 25923, Mueller-Hinton broth","16 h, 37 °C",> 100 µM
CC[C@H](C)[C@H](NC(=O)CNC(=O)[C@H](CC(=O)O)NC(=O)[C@H](CCCNC(=N)N)NC(=O)[C@@H](NC(=O)[C@H](CC(N)=O)NC(=O)[C@H](CCCNC(=N)N)NC(=O)CNC(=O)[C@@H](NC(=O)[C@H](CCCCN)NC(=O)[C@H](CCC(=O)O)NC(=O)[C@@H](NC(=O)[C@H](CCCCN)NC(=O)[C@H](CCCCN)NC(=O)[C@H](Cc1ccccc1)NC(=O)[C@@H](NC(=O)[C@H](CCCCN)NC(=O)[C@H](Cc1c[nH]c2ccccc12)NC(=O)[C@@H](N)CCCNC(=N)N)[C@@H](C)CC)[C@@H](C)CC)C(C)C)C(C)C)C(=O)N[C@H](C(=O)N[C@@H](CCCCN)C(=O)N[C@@H](C)C(=O)NCC(=O)N1CCC[C@H]1C(=O)N[C@@H](C)C(=O)N[C@H](C(=O)N[C@@H](C)C(=O)N[C@H](C(=O)N[C@H](C(=O)NCC(=O)N[C@@H](CCC(N)=O)C(=O)N[C@@H](C)C(=O)N[C@@H](C)C(=O)N[C@H](C(=O)N[C@H](C(=O)N[C@H](C(=O)N[C@@H](CCCCN)C(N)=O)C(C)C)C(C)C)[C@@H](C)O)C(C)C)C(C)C)C(C)C)[C@@H](C)CC,"broth microdilution, MH medium",KCTC 1621,"16 h, 37 °C",> 128 µM
CC(C)C[C@@H](NC(=O)[C@H](C)NC(=O)CNC(=O)[C@@H](NC=O)C(C)C)C(=O)N[C@@H](C)C(=O)N[C@@H](C(=O)N[C@H](C(=O)N[C@@H](C(=O)N[C@@H](Cc1c[nH]c2ccccc12)C(=O)N[C@H](CC(C)C)C(=O)N[C@@H](Cc1ccc2[nH]ccc2c1)C(=O)N[C@H](CC(C)C)C(=O)N[C@@H](Cc1c[nH]c2ccccc12)C(=O)N[C@@H](C(=O)N[C@@H](Cc1c[nH]c2ccccc12)C(=O)NCCO)C(C)C)[C@H](C)O)C(C)C)C(C)C,broth microdilution,"MSSA1, methicillin-susceptible",,8.6 µM
CC[C@H](C)[C@H](NC(=O)CN)C(=O)N[C@@H](C)C(=O)N[C@@H](CCCCN)C(=O)N[C@@H](C)C(=O)N[C@H](C(=O)N[C@@H](CCCCN)C(=O)N[C@@H](CCCCN)C(=O)N[C@H](C(=O)N[C@@H](C)C(=O)N[C@@H](CCCCN)C(=O)N[C@@H](C)C(=O)N[C@@H](CC(C)C)C(=O)NCC(N)=O)[C@@H](C)CC)[C@@H](C)CC,,"ATCC 29213, Mueller-Hinton broth","12 h, 37 °C",2 µg/mL
CN[C@H](CC(C)C)C(=O)N[C@H]1C(=O)N[C@@H](CC(N)=O)C(=O)N[C@H]2C(=O)N[C@H]3C(=O)N[C@H](C(=O)N[C@H](C(=O)O)c4cc(O)cc(O)c4-c4cc3ccc4O)[C@H](O)c3ccc(c(Cl)c3)Oc3cc2cc(c3O[C@@H]2O[C@H](CO)[C@@H](O)[C@H](O)[C@H]2O[C@H]2C[C@](C)(N)[C@H](O)[C@H](C)O2)Oc2ccc(cc2Cl)[C@H]1O,,"CRB, PBP4 overexpressor",,0.5 µg/mL
Cn1c(=O)ccc2ccc(F)c(CCNC[C@H]3CN(c4cnc5c(n4)NC(=O)CO5)C(=O)O3)c21,,ATCC 29213,,0.008 µg/mL
Cc1ccc2[nH]c3c(c2c1)CCCC3NCCc1ccc(O)cc1 (stereo not shown),broth microdilution,,,> 16 µg/mL
CC(C)C[C@@H](NC(=O)CNC(=O)[C@@H](CCCCN)NC(=O)[C@@H](CC(C)C)NC(=O)[C@@H](CCCCN)NC(=O)[C@@H](CCCNC(=N)N)NC(=O)[C@@H](CC(C)C)NC(=O)[C@@H](CC(C)C)NC(=O)[C@@H](CCCNC(=N)N)NC(=O)[C@H](N)CCCNC(=N)N)C(=O)N[C@H](CCCCN)C(=O)N[C@H](CCCCN)C(=O)N[C@H](Cc1ccc(O)cc1)C(=O)N[C@H](CC(C)C)C(=O)N[C@H](Cc1ccc(O)cc1)C(=O)N[C@H](Cc1ccccc1)C(=O)N[C@H](CCCCN)C(=O)N[C@H](CC(C)C)C(=O)N[C@H](CCC(N)=O)C(=O)N[C@H](CC(C)C)C(=O)N[C@H](CC(C)C)C(=O)N[C@H](CCCCN)C(=O)N[C@H](CCCCN)C(N)=O,broth microdilution,"KCTC 1621, Mueller-Hinton broth",with: FeCl3 4 µM,8 µM
CC[C@H](C)[C@H](N)C(=O)N[C@@H](CCCNC(=N)N)C(=O)N[C@H](C(=O)N[C@@H](Cc1c[nH]c2ccccc12)C(=O)N[C@@H](Cc1ccccc1)C(=O)N[C@H](C(=O)N[C@@H](CCCCN)C(=O)N[C@H](C(=O)N[C@@H](CCCNC(=N)N)C(=O)N[C@@H](CCCCN)C(=O)N[C@@H](Cc1c[nH]c2ccccc12)C(=O)N[C@@H](CCCCN)C(=O)N[C@@H](C)C(=O)N[C@H](C(=O)N[C@@H](Cc1ccc(O)cc1)C(=O)N[C@@H](Cc1c[nH]cn1)C(=O)N[C@H](C(N)=O)[C@@H](C)O)[C@@H](C)CC)C(C)C)[C@@H](C)CC)C(C)C,broth dilution,"ATCC 25923, Mueller-Hinton broth","24 h, 37 °C",100 µM
CC[C@H](C)[C@H](NC(=O)[C@H](CCCCN)NC(=O)[C@H](CCCCN)NC(=O)[C@H](Cc1ccccc1)NC(=O)[C@@H](NC(=O)[C@@H](NC(=O)[C@H](CCCNC(=N)N)NC(=O)[C@H](Cc1ccccc1)NC(=O)[C@@H](NC(=O)[C@H](CCCCN)NC(=O)[C@H](CCCCN)NC(=O)[C@@H](N)CCSC)[C@@H](C)CC)C(C)C)[C@@H](C)CC)C(=O)N[C@@H](CC(C)C)C(=O)N[C@@H](CCCCN)C(=O)N[C@@H](CCCNC(=N)N)C(=O)N[C@@H](CC(C)C)C(=O)N[C@H](C(=O)N[C@H](C(=O)O)C(C)C)[C@@H](C)CC,broth microdilution,ATCC 25923,5% fetal bovine serum,8 µg/mL
CC[C@H](C)[C@H](NC(=O)[C@H](CCCCN)NC(=O)[C@H](CCCCN)NC(=O)CNC(=O)[C@H](CCCCN)NC(=O)[C@H](CC(C)C)NC(=O)[C@H](CCCCN)NC(=O)[C@H](CCCNC(=N)N)NC(=O)[C@@H](NC(=O)[C@H](CC(C)C)NC(=O)[C@H](CCCNC(=N)N)NC(=O)[C@@H](N)CCCNC(=N)N)[C@@H](C)CC)C(=O)N[C@@H](Cc1ccc(O)cc1)C(=O)N[C@@H](CC(C)C)C(=O)N[C@@H](Cc1ccc(O)cc1)C(=O)N[C@@H](Cc1ccccc1)C(=O)N[C@@H](CCCCN)C(=O)N[C@@H](CC(C)C)C(=O)N[C@@H](CCC(N)=O)C(=O)N[C@@H](CC(C)C)C(=O)N[C@@H](CC(C)C)C(=O)N[C@@H](CCCCN)C(=O)N[C@@H](CCCCN)C(N)=O,,"CCARM 3095, methicillin-resistant, Mueller-Hinton broth",24 h,8 µM
CC[C@H](C)[C@H](NC(=O)[C@H](C)N)C(=O)N[C@@H](CO)C(=O)NCC(=O)N[C@@H](CO)C(=O)N[C@@H](CC(C)C)C(=O)N[C@H](C(=O)N[C@H](C(=O)N[C@@H](CC(C)C)C(=O)N[C@@H](Cc1ccccc1)C(=O)NCC(=O)N[C@@H](Cc1ccc(O)cc1)C(=O)N[C@@H](CCCNC(=N)N)C(=O)N[C@@H](CCCCN)C(=O)N[C@@H](CCCNC(=N)N)C(=O)N[C@@H](CCCCN)C(=O)N[C@@H](CCCNC(=N)N)C(=O)N[C@@H](CCCCN)C(N)=O)[C@@H](C)O)C(C)C,broth microdilution,,"24 h, 37 °C",128 µM
CC[C@H](C)[C@H](NC(=O)[C@H](CC(C)C)NC(=O)[C@H](CCCNC(=N)N)NC(=O)[C@@H](N)CCCNC(=N)N)C(=O)N[C@@H](CC(C)C)C(=O)N[C@H](C(=O)N[C@@H](CCCCN)C(=O)N[C@H](C(=O)NCC(=O)N1CCC[C@H]1C(=O)N[C@H](C(=O)N[C@H](C(=O)N[C@@H](Cc1ccc(O)cc1)C(=O)N[C@@H](CCCCN)C(=O)N[C@@H](Cc1ccc(O)cc1)C(=O)N[C@@H](Cc1ccccc1)C(=O)N[C@@H](CCCCN)C(=O)N[C@@H](CCCCN)C(=O)N[C@@H](CCC(N)=O)C(=O)N[C@@H](CC(C)C)C(=O)N[C@@H](CCCCN)C(=O)N[C@@H](CCCCN)C(=O)N[C@@H](CC(C)C)C(N)=O)[C@@H](C)CC)[C@@H](C)CC)[C@@H](C)O)[C@@H](C)O,broth microdilution,"KCTC 1621, Mueller-Hinton broth","24 h, 37 °C",16 µM
CC[C@H](C)[C@H](NC(=O)CN)C(=O)NCC(=O)N[C@@H](C)C(=O)N[C@H](C(=O)N[C@@H](CC(C)C)C(=O)N[C@@H](CCCCN)C(=O)N[C@H](C(=O)N[C@@H](CC(C)C)C(=O)N[C@H](C(=O)N[C@H](C(=O)NCC(=O)N[C@@H](CC(C)C)C(=O)N1CCC[C@H]1C(=O)N[C@@H](C)C(=O)N[C@@H](CC(C)C)C(=O)N[C@H](C(=O)N[C@@H](CO)C(=O)N[C@@H](Cc1c[nH]c2ccccc12)C(=O)N[C@H](C(=O)N[C@@H](CCCCN)C(=O)N[C@@H](CCCNC(=N)N)C(=O)N[C@@H](CCCCN)C(=O)N[C@@H](CCCNC(=N)N)C(=O)N[C@@H](CCC(N)=O)C(=O)N[C@@H](CCC(N)=O)C(N)=O)[C@@H](C)CC)[C@@H](C)CC)[C@@H](C)O)[C@@H](C)O)C(C)C)C(C)C,broth microdilution,"29213, Mueller-Hinton broth","24 h, 37 °C, lowest concentration, 95% inhibition, with: BSA",2 µM
